Assay results collected from several papers.
Every numbered part comes from another study and shows a few of its results, in no order. Positions count from the first letter of the parent shown.

Block 1
Target: Histone acetyltransferase KAT6A, winged helix 1, GST fusion (KAT6A, Homo sapiens, UniProt Q92794, residues 1-85)
Method: protein binding microarray
Form: double-stranded DNA, one strand shown
Sample: in vitro
Tested at: not given
Notes: 8-mer, flanks averaged, mean of 2 arrays, mostly near background
Reference: not given
Direction: higher = stronger binding
Residues (chain): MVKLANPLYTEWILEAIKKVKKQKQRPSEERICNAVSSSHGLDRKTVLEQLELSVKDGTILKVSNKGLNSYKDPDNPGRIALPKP
Strand	E-score
ATAGCTCA	0.0201
ACGCGCTG	0.357
CTTCTTCC	-0.034
ACTCACAA	-0.272
GATTCTAC	0.0467
ACGTTTGC	-0.00379
AGTGTACA	-0.0569
GTATTATA	0.0474
AACGCTCT	-0.0813
CGCAAGAC	0.0415
TCGTGCCA	-0.0911
ACGCGCCA	0.217
GGGCCTAC	0.0611
ACTCGCCC	0.155
ACGGTTCA	0.0712
GAGTGGCC	0.0338
CTGAACAG	-0.174
GTCGGTTA	0.151
GCCATTAA	-0.139
AAGTCCTC	-0.235
CGTTATGA	-0.0252
ACGATGGC	-0.0855
CCAATCAA	-0.121
CCGCGGCG	0.459
CACGGTAC	0.281

Block 2
Target: RNA binding protein fox-1 homolog 2, RRM domain, GST-SBP tag (RBFOX2, Homo sapiens, UniProt O43251-10, residues 100-194)
Method: RNA Bind-n-Seq
Form: RNA
Sample: in vitro
Tested at: 365 nM
Notes: natural RNA segment, single round, ends assumed
Reference: no-protein control
Direction: higher = stronger binding
Constant ends, left off below: GGGAGUUCUACAGUCCGACGAUC … UGGAAUUCUCGGGUGCCAA
Construct (chain): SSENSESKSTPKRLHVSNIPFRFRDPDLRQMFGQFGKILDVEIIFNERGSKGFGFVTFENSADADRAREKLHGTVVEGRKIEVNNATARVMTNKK
Strand	RBNS enrichment (R)
ACCCCUAAAGUGACCCUUUCCUCUUCUGCCCUAUUCUUCUCAGACCCUCAGAAAGACAUCCAAUUUUUUUAAAUCCCUGUAGCUCCAAGCCUGGUCUCAUUUGCUUCCCU	0.527
GAGACGUGAUUUCCGAUGCGCAUCUUCAGAGUCAAACACACCCUCCCUCGUGUACAACCAAAGAACAGGCAUUAUGAAAUUGUAUAGUAAUAUCUAGAAACACCACUUCC	0.543
UACAAACUUAAGUGUAUGUGCUAAAACUAAAUGUAUGUAACAUUUUUUUUUUAGCAGCGCCUUUGCUAGAUCAGCUGCCAGUUUGGAUUAUUGCCCUUAAGAGCUUUAAA	0.333
AUCUGAGUAACUGCUCUUGGUGGCUUCCACUGCCCUGAGGCUUUGAGGGAAGCACCUAACCUCUGCUGCUUUGCAAGGAAGGCUCCUUGCAAUCUGGAGAGAGACUCGGU	0.339
UCUAUCAACACCAUCGACGUUUGAGUGAAGAAACACACCCAGAAGAGAGAUGCACUAACAACUGGGGAUAGGGAUGGGGUCAGGGGGAGCCCAAGAUGGUGAUCUGCCCG	0.391
UCUCCUAACCUUGAGAUCCACCCUCCACAGCCUCCCAAACUGCUGGGAUUACAGGUGUGAGCCACCGCACGUAGCAUUUACAUUAGGUAUUACAAGUAAUGUAAAGAUGA	0.466
AGUAUCGUGCAUUAAAUGGGCAGUGUUAAUGUAGAACCAGGGUUCUACCACAUGCAAGUCUGUGUCCACAGAGCCGUUCUUGAACUCCGUAUCAGUACAGCUUUCACCUG	0.552
AGAUAAAUGGGUAUACUGGAAUCCGAUGCCGUUUCUACAGUAAAGUGCAAUCUUCGUUGUUUUUGUAUUUAUUUGUAUGUUCAGAUCCAAAGGAUCCGUUGUAAAAAUAU	0.547
CCCUGUAAUUAAAAACAAAGGCUAGGUAACUAUUGUGCCAGUGUUGACAGUUUAAACUGCUAACAGAUUGAGAGAUCCCUGCUCAGAAACCUCACCUUUAGUGCUUUCUU	0.308
AGAUGUCGUUAAUCCCACCCACGUCCACCAUGACAGGCCUGUGUCAGCCUCCCUGAAACACAGCAGCCCCCCUUACUAAUCACAGGCACAAAUGGAGAGGAAGGGGUCCC	0.626
CGGAGGUUGCAGUGAGCCAGGAUUGUGCCAUUGCACUCCAGCCUGGGCAACAAGAACAAAACUCCAUCUCAAAAAAUAAAAAUCCCAAUCCCAAGUCGAAAUCACCUCUU	0.768
GUUCGGAAGACUCAUCUAGCCCUUGGGUGCUGACCAGCAGAGCUGCUAGUGGAUAUUGGAGUUACAUGAGCUACGUGUUAAUAUUCAGUCUCCAGAAUAAACGUCCCAGC	0.229

Block 3
Target: CCNA2, cyclin fold, Cln2 fusion (human)
Method: yeast growth competition, sequencing
Sample: yeast
Notes: strong parent motif
Reference: not given
Direction: higher = stronger binding
Starting sequence: CDC25A docking peptide (human); PPHRRRLLFACSP
Substitution	normalised enrichment score
PPHRRRNLFACSP [L7N]	1.46
PPHRRYLLFACSP [R6Y]	1.11
PPHRRRLLFACAP [S12A]	2.02
PPPRRRLLFACSP [H3P]	3.94
PPHRSRLLFACSP [R5S]	1.9
PPHRMRLLFACSP [R5M]	1.78
PWHRRRLLFACSP [P2W]	2.04
PPHRRMLLFACSP [R6M]	2.32
PPHRRDLLFACSP [R6D]	0.426
PAHRRRLLFACSP [P2A]	2.04
PPHRRPLLFACSP [R6P]	-0.321
PPHRAAAAFACSP [R5A R6A L7A L8A]	0.232
PPHCRRLLFACSP [R4C]	3.95
PPHRHRLLFACSP [R5H]	1.64

Block 4
Target: Ras GTPase-activating protein-binding protein 1, C-terminal RGG region (G3BP1, Homo sapiens, UniProt Q13283)
Chain of UniProt Q13283 (whole entry, looked up): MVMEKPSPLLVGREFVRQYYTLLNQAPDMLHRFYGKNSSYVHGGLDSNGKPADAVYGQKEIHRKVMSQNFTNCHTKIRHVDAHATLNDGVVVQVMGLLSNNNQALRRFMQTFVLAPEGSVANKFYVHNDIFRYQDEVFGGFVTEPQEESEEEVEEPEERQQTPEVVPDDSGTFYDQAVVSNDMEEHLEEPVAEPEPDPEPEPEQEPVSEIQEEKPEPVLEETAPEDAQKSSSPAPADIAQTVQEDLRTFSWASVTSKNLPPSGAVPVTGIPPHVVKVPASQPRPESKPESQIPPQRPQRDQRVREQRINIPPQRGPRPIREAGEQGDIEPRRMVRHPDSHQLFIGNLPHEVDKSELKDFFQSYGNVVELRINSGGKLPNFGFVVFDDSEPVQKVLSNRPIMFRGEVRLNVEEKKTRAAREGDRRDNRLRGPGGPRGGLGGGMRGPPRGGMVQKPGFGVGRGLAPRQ
Method: RNA Bind-n-Seq
Form: RNA
Sample: in vitro
Tested at: 1 µM
Notes: whole 134-nt RNA, ends assumed
Together with: 150 mM KCl
Reference: input library
Direction: higher = stronger binding
Constant ends, left off below: GGGAGUUCUACAGUCCGACGAUC … UGGAAUUCUCGGGUGUCAAGG
Strand	log2 enrichment
UCCUGUGCUACACAUCGUAUGUACCGAAUCGGGGAAAGGGGAAAAAAAGGGGAAAGGGGAAAGUAUUAUGUUACGCCGUUCGGAUCUGCA	2.08
GUCCUGUGCUACACAUCGUAUGUACCGAAUCGGAAAAAGGGAAAAAGGGGAAAAAGGGGAAAGUAUUAUGUUACGCCGUUCGGAUCUGCA	-0.824
CCUCAAGUCCUGUGCUACACAUCGUAUGUACCGAAUCGGAAGGAAGGGAAGGGAAAGUAUUAUGUUACGCCGUUCGGAUCUGCACUUCCA	-1.34
GCAGGAAAAAAAAACAAAUGGAAAUGCUUCGGAUAGUGGCAGGGGUGGGGGUUGCUAAGGAAAGGGUGGGAUGGGAGUGGGUAAAGAGUU	1.85
UAACUUUAGAGGAGGAUCUGAUGGAUAUGGCAGUGGACGUGGAUUUGGGGAUGGCUAUAAUGGGUAGGGAGGAGGACCUGGAGGUGGCAA	-0.611
GUCCUGUGCUACACAUCGUAUGUACCGAAUCGGGUUUGGGUUUUUGGGUUUUUUUGGGAAAGUAUUAUGUUACGCCGUUCGGAUCUGCAC	0.194
GCAGGAAGUAAAAACAAAUGGAAAUGCUUCGGAUAGUGGCAGGGGUGGGGGUUGCUAAGGAAAGGGUGGGAUGGGAAAAGGUAAAGAGUU	2.07
UGGCCCUGGUGGCAUGCGGGGAGAAAGAGGUGGCCUCAUGGAUCGUGGUGGUCCCGGUGGAAUGUUCAGAGGUGGCCGUGGUGGAGACAG	2.6
UAACUUUAGAGGAGGAUCUGAUGGAUAUGGCAGUGGACGUGGAUUUGGCGAUGGCUAUAAUGGGUAUGGAGGAGGACCUGGAGGUGGCAA	-0.741
AGUCCUGUGCUACACAUCGUAUGUACCGAAUCGGGAAAGGGAAAGGGAAAAAAAGGGAAAGUAUUAUGUUACGCCGUUCGGAUCUGCACU	-0.339
CUGUGCUACACAUCGUAUGUACCGAAUCGGGUUUUUUUGGGGUUUUUUUGGGUUUUUUUGGGAAAGUAUUAUGUUACGCCGUUCGGAUCU	-0.987
UAACUUUAGAGGAGGAUCUGAUGGAUAUGGCAGUGGACGUGGGUUUGGGGAUGGCUAUAAUGGGUAUGGAGGAGGACCUGGAGGUGGCAA	-0.687
UGGGAGGUGGAUUUUGUUUAUUUUUUUAGCUCAUUUCCAGGGGUGGGAAUUUUUUUUUAAUAUAUGUCAUGAAUAAAGUUGUUUUUGAAA	2.94
GUCCUGUGCUACACAUCGUAUGUACCGAAUCGGGGUGGGGUUUGGGGUUUUUUUGGGGAAAGUAUUAUGUUACGCCGUUCGGAUCUGCAC	2.21

Block 5
Target: Sal-like protein 4, full length isoform A (SALL4, Homo sapiens, UniProt Q9UJQ4, residues 1-1053)
Chain of UniProt Q9UJQ4 (whole entry, looked up): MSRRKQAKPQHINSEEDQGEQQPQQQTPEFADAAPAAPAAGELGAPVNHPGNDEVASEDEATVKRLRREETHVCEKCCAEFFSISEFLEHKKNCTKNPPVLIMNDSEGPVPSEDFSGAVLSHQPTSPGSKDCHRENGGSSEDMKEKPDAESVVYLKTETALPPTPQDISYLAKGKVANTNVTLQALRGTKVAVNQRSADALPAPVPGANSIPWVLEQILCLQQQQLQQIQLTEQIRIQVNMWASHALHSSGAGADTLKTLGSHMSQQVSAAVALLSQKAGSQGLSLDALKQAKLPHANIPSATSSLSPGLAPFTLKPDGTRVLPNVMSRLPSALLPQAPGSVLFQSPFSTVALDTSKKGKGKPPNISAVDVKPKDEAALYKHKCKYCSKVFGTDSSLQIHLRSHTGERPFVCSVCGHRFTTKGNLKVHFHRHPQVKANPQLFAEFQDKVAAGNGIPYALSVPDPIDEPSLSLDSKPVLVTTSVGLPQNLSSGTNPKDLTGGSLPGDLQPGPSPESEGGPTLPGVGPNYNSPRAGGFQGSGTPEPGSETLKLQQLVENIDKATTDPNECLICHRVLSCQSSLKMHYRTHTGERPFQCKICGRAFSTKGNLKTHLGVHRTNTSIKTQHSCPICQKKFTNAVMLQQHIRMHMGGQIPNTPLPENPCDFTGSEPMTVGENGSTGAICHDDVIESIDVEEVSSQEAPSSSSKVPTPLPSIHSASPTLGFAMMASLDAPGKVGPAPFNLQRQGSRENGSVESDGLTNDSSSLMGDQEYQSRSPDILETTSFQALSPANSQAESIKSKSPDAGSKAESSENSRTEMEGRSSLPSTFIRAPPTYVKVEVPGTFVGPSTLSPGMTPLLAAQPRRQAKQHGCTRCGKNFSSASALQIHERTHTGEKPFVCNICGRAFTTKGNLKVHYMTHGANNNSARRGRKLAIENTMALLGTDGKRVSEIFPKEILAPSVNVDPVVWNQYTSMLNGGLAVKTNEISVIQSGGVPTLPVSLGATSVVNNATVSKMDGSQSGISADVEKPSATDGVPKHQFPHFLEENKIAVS
Method: universal PBM
Form: double-stranded DNA, one strand shown
Sample: in vitro
Tested at: 600 nM
Notes: 8-mer, flanks averaged, mean of replicates
Direction: higher = stronger binding
Strand	E-score
ATTCCTGC	0.0246
AGGTTCAT	0.0266
GTAGCCAA	-0.0406
AGAACTTC	-0.0911
TCAGGCCA	-0.0922
GGACTTTA	0.141
CGCCTGAA	-0.115
AACCATTG	0.0893
CCCCCACC	-0.339
AGAAATCC	-0.0974
ACATCCAA	0.121
ACGTAACA	0.119
CAGTTGCG	-0.128
CTCTCAAG	0.00094
CCGGCAAG	-0.317
GTTGTGCA	-0.0911
GCGACGGA	-0.284
CGCTTACA	-0.109
AGGCTGGG	-0.308
GGTGCCAA	-0.146
ACACGAAA	0.1
CAGAGCGC	-0.325
AGCACATG	-0.0971
CGTCCTTA	-0.0298
GTTACTAA	0.204

Block 6
Target: FOSL2, bZIP domain (human)
Method: DHFR protein complementation
Sample: yeast
Notes: single substitutions, most at no-binding floor
Reference: wild-type JUN-FOS pair
Direction: higher = stronger binding
Starting sequence: JUN, bZIP domain (human); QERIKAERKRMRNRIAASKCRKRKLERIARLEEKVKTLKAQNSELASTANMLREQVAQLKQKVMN; partner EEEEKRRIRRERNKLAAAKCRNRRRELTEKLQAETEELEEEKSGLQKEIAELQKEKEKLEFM
Substitution	binding fitness
E32T	-0.0126 natural log
L45Q	-1.2 natural log
L31E	-0.276 natural log
V35I	0.177 natural log
Q41T	-0.0104 natural log
E54P	-1.15 natural log
L52M	-0.249 natural log
L38G	-0.754 natural log
A49M	-0.0734 natural log
E33P	-1.28 natural log
Q55G	-0.466 natural log
A46D	-0.501 natural log
S43L	0.0545 natural log
I28R	-0.0582 natural log
L52R	-0.959 natural log
T37G	0.0393 natural log
N42T	-0.00831 natural log
A40P	-1.15 natural log
R30E	0.249 natural log

Block 7
Target: ABI1, truncated, D143A, DHFR fusion (Arabidopsis thaliana)
Method: DHFR PCA, deep sequencing
Sample: yeast
Notes: methotrexate growth selection, single substitutions
Together with: (+)-ABA 4.8 µM
Reference: wild-type fitted maximum
Direction: higher = stronger binding
Starting sequence: PYL1, truncated, DHFR fusion (Arabidopsis thaliana); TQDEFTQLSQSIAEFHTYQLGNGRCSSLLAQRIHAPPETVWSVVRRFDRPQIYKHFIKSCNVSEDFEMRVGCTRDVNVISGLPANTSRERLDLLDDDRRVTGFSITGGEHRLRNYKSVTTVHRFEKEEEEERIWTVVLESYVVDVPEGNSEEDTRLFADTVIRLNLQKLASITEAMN
Substitution	relative binding score
R49K	77.7%
Q2R	71.1%
H55C	86.6%
S63C	72.7%
E129Q	70.5%
V76T	18.9%
R45W	-9.38%
D48Q	-10.4%
K54Q	-4.97%
H110F	5.86%
I79G	-0.291%
I79C	70.2%
H55P	103%
T73Q	62.2%
I57M	0.095%
H34K	72%

A few entries again (block 7):
Substitution	relative binding score
R49K	77.7%
Q2R	71.1%
H55C	86.6%
S63C	72.7%
E129Q	70.5%
V76T	18.9%
R45W	-9.38%
D48Q	-10.4%
K54Q	-4.97%
H110F	5.86%
I79G	-0.291%
I79C	70.2%
H55P	103%
T73Q	62.2%
I57M	0.095%
H34K	72%
